Experimental data collected from several papers.
Each line is one published result; not all experiments were run side by side. ± marks the error that the study gave.
OPRM1: Mu-type opioid receptor (OPRM1, Homo sapiens, UniProt P35372)
Sequence of UniProt P35372 (whole entry, looked up): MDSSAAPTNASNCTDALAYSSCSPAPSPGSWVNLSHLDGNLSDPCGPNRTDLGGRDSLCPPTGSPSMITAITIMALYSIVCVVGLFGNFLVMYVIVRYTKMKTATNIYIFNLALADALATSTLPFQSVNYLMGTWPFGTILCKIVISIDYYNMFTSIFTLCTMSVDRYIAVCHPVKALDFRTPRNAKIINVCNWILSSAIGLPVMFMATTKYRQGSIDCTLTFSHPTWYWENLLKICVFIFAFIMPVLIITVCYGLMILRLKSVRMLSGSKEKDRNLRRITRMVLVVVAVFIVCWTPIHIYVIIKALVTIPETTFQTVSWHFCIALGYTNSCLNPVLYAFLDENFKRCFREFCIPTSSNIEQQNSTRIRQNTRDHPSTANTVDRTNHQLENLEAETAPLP
rep papain-like protease: Replicase polyprotein 1ab, papain-like protease (rep, Severe acute respiratory syndrome coronavirus 2, UniProt P0DTD1)
rep main protease: Replicase polyprotein 1ab, main protease (rep, Severe acute respiratory syndrome coronavirus 2, UniProt P0DTD1)

CC(C)C[C@H](NC(=O)[C@H](CO[C@@H]1O[C@H](CO)[C@@H](O)[C@H](O)[C@H]1O)NC(=O)[C@H](CCCCN)NC(=O)[C@H](CC(C)C)NC(=O)C(C)(C)NC(=O)[C@H](CCCCN)NC(=O)[C@H](CCC(=O)O)NC(=O)C(C)(C)NC(=O)[C@H](CC(C)C)NC(=O)[C@H](CC(N)=O)NC(=O)[C@@H]1CCCN1C(=O)[C@H](CC(C)C)NC(=O)[C@H](Cc1ccccc1)NC(=O)CNC(=O)[C@H](NC(=O)[C@@H](N)Cc1ccc(O)cc1)[C@H](C)O)C(N)=O
Ki (OPRM1; radioligand displacement; CHO membranes; 60 min, pH 7.5, 25 °C, added: 0.25 nM [3H]DAMGO): 0.0091 ± 0.00039 µM

COc1ccc(-c2cc(=O)c3c(O)cc(O)cc3o2)cc1Oc1ccc(-c2cc(=O)c3c(O)cc(O)cc3o2)cc1
Ki (rep papain-like protease; enzyme activity, inhibitor): 19.7 µM

[2H]C1([2H])CC[C@@H](C[C@@H](C#N)NC(=O)[C@@H]2[C@@H]3[C@H](CN2C(=O)[C@@H](NC(=O)C(F)(F)F)C(C)(C)C)C3(C)C)C(=O)N1
Ki (rep main protease; enzyme activity, inhibitor): 0.0021 µM

Cc1cc(O)cc(C)c1C[C@H](N)C(=O)NCC(=O)NCC(=O)N[C@@H](Cc1ccccc1)C(=O)N[C@H](C(=O)NCC(=O)N[C@@H](C)C(=O)N[C@@H](CCCNC(=N)N)C(=O)N[C@@H](CCCCN)C(=O)N[C@@H](CO)C(=O)N[C@@H](C)C(=O)N[C@@H](CCCNC(=N)N)C(=O)N[C@@H](CCCCN)C(N)=O)[C@@H](C)O
EC50 (OPRM1; GTPγS binding, agonist, radiometric; cell membranes): 0.00263 µM

CC(C)CC(NC(=O)OCc1ccccc1)C(=O)NC(CC1CCNC1=O)C(=O)C(=O)NC1CC1 (centres unmarked)
Ki (rep main protease; enzyme activity, inhibitor, FRET): 0.036 µM

Cc1ccccc1[C@@H](C)N(C)Cc1cc(O)ccc1Cl
Ki (rep papain-like protease; enzyme activity, inhibitor, FRET): 2.1 µM

Cc1ccc(OCCN(C)C)cc1C(=O)N[C@H](C)c1cc(-c2cccs2)cc(-c2ccc(CN)s2)c1
Ki (rep papain-like protease; enzyme activity, inhibitor, FRET): 0.0755 µM

CC(=O)Nc1ccc(-c2cnc(N3C(=O)C(Cl)C3c3cc4ccccc4nc3Cl)s2)cc1 (centres unmarked)
Ki (rep papain-like protease; papain-like protease activity, inhibitor; SARS-CoV-2; 15 min, 37 °C, added: substrate 40 µM): 0.35 ± 0.1 µM

Cc1ccc(CNC(=O)c2ccc(F)c(F)c2)cc1C(=O)N[C@H](C)c1cccc2ccccc12
Ki (rep papain-like protease; enzyme activity, inhibitor): 5.4 µM

CCCCCCCCCCCCCCCC(=O)N[C@@H](CCC(=O)NCCOCCOCCC(=O)NCCOCCOCCC(=O)NCCCC[C@H](NC(=O)[C@H](CC(=O)O)NC(=O)[C@H](CC(C)C)NC(=O)[C@H](Cc1ccc(O)cc1)NC(=O)[C@H](CCCCN)NC(=O)[C@H](CO)NC(=O)[C@H](Cc1ccc(O)cc1)NC(=O)[C@H](CC(=O)O)NC(=O)[C@H](CO)NC(=O)[C@@H](NC(=O)[C@H](Cc1ccccc1)NC(=O)[C@@H](NC(=O)CNC(=O)[C@H](CCC(N)=O)NC(=O)[C@@H](CO)NC(=O)[C@@H](N)Cc1c[nH]cn1)[C@@H](C)O)[C@@H](C)O)C(=O)N[C@@H](CCCNC(=N)N)C(=O)N[C@@H](CCCNC(=N)N)C(=O)N[C@@H](C)C(=O)N[C@@H](CCC(N)=O)C(=O)N[C@@H](CC(=O)O)C(=O)N[C@@H](Cc1ccccc1)C(=O)N[C@H](C(=O)N[C@@H](CCC(N)=O)C(=O)N[C@@H](Cc1c[nH]c2ccccc12)C(=O)N[C@@H](CC(C)C)C(=O)N[C@@H](CC(C)C)C(=O)N[C@@H](CC(N)=O)C(=O)N[C@H](C(=O)NCC(=O)NCC(=O)N1CCC[C@H]1C(=O)N[C@@H](CO)C(=O)N[C@@H](CO)C(=O)NCC(=O)N[C@@H](C)C(=O)N1CCC[C@H]1C(=O)N1CCC[C@H]1C(=O)N1CCC[C@H]1C(=O)N[C@@H](CO)C(N)=O)[C@@H](C)O)C(C)C)C(=O)O
serum cholesterol (male rhesus monkeys; subcutaneous, 20 µg/kg once daily, 28 days): 2.75 ± 0.34 mmol/L

C=C1CC[C@@H]2[C@](C)(COC(C)=O)[C@H](OC(C)=O)CC[C@@]2(C)[C@@H]1C[C@H](SC(=S)N1CCc2ccccc2C1c1ccccc1)C1=CCOC1=O (some centres unmarked)
Ki (rep main protease; enzyme activity, inhibitor, fluorescence): 5 µM

Cc1ccc(OCCN(C)C)cc1C(=O)N[C@H](C)c1cc(-c2cnn(C)c2)cc(-c2cnn(CC(F)(F)F)c2)c1
Ki (rep papain-like protease; enzyme activity, inhibitor, FRET): 0.0398 µM

CC(C)C[C@H](NC(=O)[C@H](CO)NC(=O)[C@H](CCCCN)NC(=O)[C@H](CC(C)C)NC(=O)CNC(=O)[C@H](CCCCN)NC(=O)[C@H](CCC(=O)O)NC(=O)CNC(=O)[C@H](CC(C)C)NC(=O)[C@H](CC(N)=O)NC(=O)[C@@H]1CCCN1C(=O)[C@H](CC(C)C)NC(=O)[C@H](Cc1ccccc1)NC(=O)CNC(=O)[C@H](NC(=O)[C@@H](N)Cc1ccc(O)cc1)[C@H](C)O)C(N)=O
Ki (OPRM1; radioligand displacement; CHO membranes; 60 min, pH 7.5, 25 °C, added: 0.25 nM [3H]DAMGO): 0.012 ± 0.0018 µM

CCn1ccc(-c2cc(-c3cnn(CCOC)c3)cc([C@@H](C)NC(=O)c3cc(OCCN(C)C)ccc3C)c2)n1
Ki (rep papain-like protease; enzyme activity, inhibitor, FRET): 0.0372 µM

O=C(Oc1cncc(Cl)c1)c1ccco1
Ki (rep main protease; enzyme activity, inhibitor): 0.56 µM

Cc1ccc(OCCN(C)C)cc1C(=O)N[C@H](C)c1cc(-c2cnn(C)c2)cc(-c2cncs2)c1
Ki (rep papain-like protease; enzyme activity, inhibitor, FRET): 0.0352 µM

CC[C@H](C)[C@H](NC(=O)[C@H](CCCCN)NC(=O)[C@H](Cc1c[nH]c2ccccc12)NC(=O)[C@H](CC(C)C)NC(=O)[C@H](CC(C)C)NC(=O)[C@H](CC(=O)O)NC(=O)[C@@H](NC(=O)[C@H](CCCNC(=N)N)NC(=O)[C@H](CCC(=O)O)NC(=O)[C@H](CCCNC(=N)N)NC(=O)[C@H](CC(=O)O)NC(=O)[C@H](CC(C)C)NC(C)=O)[C@@H](C)CC)C(=O)N[C@@H](C)C(=O)N[C@@H](CCCNC(=N)N)C(=O)N[C@@H](C)C(=O)NCC(=O)N[C@@H](C)C(=O)N[C@@H](CCCNC(=N)N)C(=O)N[C@@H](CO)C(=O)N[C@@H](C)C(=O)N[C@H](C(=O)NCC(N)=O)C(C)C
Kd (membrane partitioning, tryptophan fluorescence; POPC:POPG:cholesterol SUV; pH 7.5, 25 °C, first transition): 2100 ± 600 µM

Repeated from above:
COc1ccc(-c2cc(=O)c3c(O)cc(O)cc3o2)cc1Oc1ccc(-c2cc(=O)c3c(O)cc(O)cc3o2)cc1
Ki (rep papain-like protease; enzyme activity, inhibitor): 19.7 µM

[2H]C1([2H])CC[C@@H](C[C@@H](C#N)NC(=O)[C@@H]2[C@@H]3[C@H](CN2C(=O)[C@@H](NC(=O)C(F)(F)F)C(C)(C)C)C3(C)C)C(=O)N1
Ki (rep main protease; enzyme activity, inhibitor): 0.0021 µM
